Results from different studies.
Lines come from different studies, so protocols differ. Several values in a cell are separate wells, animals, samples, runs or records. Numbers after ± are the reported error.
PLCG2 residues 1-1195: 1-phosphatidylinositol 4,5-bisphosphate phosphodiesterase gamma-2, residues 1-1195 (PLCG2, Homo sapiens, UniProt P16885)
Sequence of UniProt P16885 (1-1195, looked up): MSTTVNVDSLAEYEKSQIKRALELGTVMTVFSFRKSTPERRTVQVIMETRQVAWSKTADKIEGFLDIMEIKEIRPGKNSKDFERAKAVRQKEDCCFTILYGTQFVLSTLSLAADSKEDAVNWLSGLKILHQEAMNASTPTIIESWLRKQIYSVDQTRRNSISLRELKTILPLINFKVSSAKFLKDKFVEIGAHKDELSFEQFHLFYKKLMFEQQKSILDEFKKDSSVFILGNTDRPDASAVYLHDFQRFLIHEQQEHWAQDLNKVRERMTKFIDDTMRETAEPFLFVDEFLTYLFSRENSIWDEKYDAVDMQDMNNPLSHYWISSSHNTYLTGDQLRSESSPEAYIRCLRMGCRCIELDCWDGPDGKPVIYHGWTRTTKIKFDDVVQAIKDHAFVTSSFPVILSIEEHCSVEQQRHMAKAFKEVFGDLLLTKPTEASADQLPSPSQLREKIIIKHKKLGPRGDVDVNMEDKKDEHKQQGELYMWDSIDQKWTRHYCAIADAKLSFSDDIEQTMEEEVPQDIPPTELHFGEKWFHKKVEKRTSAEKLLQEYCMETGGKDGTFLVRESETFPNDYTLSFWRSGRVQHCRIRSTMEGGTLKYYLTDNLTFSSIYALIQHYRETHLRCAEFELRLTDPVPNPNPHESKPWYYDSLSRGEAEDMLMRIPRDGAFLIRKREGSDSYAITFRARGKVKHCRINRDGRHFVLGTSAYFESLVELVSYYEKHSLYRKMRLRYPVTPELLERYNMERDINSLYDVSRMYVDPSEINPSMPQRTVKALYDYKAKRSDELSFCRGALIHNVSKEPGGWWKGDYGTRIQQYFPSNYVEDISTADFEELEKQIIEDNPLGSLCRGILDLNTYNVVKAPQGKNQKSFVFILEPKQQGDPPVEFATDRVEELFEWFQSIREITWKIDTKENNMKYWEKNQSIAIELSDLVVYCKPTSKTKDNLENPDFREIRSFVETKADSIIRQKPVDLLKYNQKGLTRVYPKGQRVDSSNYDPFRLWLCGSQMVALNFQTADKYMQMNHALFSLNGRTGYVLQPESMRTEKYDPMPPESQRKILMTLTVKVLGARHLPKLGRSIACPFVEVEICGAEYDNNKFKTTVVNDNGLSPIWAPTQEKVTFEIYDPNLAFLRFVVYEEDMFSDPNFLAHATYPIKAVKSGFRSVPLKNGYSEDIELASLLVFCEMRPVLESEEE
GBA2: Beta-glucosidase (GBA2, Homo sapiens, UniProt Q9HCG7)
Sequence of UniProt Q9HCG7 (whole entry, looked up): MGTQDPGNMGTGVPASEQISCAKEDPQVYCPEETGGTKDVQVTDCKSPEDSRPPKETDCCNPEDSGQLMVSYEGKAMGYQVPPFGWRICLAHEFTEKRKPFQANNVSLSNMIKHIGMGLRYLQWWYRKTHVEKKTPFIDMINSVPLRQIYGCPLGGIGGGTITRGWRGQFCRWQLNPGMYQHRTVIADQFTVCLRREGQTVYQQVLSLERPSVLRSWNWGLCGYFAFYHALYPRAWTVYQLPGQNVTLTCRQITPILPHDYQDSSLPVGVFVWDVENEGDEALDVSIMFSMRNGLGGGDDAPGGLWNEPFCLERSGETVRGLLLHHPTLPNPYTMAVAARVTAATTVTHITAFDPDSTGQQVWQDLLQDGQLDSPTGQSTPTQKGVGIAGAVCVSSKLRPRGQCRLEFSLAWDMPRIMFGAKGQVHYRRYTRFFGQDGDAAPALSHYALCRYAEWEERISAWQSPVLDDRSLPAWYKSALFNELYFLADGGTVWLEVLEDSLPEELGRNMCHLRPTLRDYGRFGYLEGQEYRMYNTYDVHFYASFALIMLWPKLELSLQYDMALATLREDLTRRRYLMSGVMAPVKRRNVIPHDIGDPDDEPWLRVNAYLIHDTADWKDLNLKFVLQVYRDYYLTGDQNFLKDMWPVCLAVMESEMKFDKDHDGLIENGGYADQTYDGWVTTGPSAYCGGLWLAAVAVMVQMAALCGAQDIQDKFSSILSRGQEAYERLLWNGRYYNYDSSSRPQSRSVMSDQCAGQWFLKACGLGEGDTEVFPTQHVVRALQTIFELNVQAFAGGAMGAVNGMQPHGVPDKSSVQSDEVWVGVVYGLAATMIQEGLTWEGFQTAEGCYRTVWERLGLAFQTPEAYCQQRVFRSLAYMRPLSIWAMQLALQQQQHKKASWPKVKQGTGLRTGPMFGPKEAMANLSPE
ESR1: Estrogen receptor (ESR1, Homo sapiens, UniProt P03372)
Sequence of UniProt P03372 (whole entry, looked up): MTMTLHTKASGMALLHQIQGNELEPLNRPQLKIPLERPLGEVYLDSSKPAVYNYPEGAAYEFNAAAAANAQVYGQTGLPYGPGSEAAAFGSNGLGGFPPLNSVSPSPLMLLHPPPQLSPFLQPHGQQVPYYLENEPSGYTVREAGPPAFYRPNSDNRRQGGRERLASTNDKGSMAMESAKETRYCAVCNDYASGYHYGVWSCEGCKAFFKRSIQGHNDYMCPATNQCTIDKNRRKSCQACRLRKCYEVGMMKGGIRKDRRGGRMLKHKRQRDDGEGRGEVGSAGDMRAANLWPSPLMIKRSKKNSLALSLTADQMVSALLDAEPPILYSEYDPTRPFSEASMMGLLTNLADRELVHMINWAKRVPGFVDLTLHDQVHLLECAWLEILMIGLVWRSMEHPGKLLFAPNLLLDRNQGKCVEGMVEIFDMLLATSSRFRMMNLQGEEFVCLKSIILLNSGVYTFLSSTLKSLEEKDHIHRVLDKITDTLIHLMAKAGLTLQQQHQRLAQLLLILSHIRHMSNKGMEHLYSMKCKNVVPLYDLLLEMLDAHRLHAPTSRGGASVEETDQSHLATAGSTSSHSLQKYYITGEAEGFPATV
MTNR1A: Melatonin receptor type 1A (MTNR1A, Homo sapiens, UniProt P48039)
Sequence of UniProt P46089 (whole entry, unmodified, looked up): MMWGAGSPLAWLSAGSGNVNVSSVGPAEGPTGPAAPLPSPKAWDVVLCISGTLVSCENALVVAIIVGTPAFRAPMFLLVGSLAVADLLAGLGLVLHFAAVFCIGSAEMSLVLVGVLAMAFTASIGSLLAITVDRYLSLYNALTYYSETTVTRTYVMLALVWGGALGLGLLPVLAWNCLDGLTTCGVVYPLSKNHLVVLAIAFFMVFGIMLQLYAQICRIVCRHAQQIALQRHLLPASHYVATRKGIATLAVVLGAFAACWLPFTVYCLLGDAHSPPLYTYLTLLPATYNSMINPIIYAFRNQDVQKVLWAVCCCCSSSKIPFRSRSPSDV
Sequence of UniProt P48039 (whole entry, looked up): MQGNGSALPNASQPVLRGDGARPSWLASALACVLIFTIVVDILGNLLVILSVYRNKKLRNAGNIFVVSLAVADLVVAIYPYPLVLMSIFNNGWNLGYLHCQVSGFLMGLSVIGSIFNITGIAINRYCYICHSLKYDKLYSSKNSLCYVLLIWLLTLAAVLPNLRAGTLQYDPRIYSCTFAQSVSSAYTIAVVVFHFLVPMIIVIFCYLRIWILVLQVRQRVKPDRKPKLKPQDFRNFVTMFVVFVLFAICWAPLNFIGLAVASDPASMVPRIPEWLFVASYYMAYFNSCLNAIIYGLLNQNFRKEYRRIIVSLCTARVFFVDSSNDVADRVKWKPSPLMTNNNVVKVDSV
Sequence of UniProt P50750 (whole entry, looked up): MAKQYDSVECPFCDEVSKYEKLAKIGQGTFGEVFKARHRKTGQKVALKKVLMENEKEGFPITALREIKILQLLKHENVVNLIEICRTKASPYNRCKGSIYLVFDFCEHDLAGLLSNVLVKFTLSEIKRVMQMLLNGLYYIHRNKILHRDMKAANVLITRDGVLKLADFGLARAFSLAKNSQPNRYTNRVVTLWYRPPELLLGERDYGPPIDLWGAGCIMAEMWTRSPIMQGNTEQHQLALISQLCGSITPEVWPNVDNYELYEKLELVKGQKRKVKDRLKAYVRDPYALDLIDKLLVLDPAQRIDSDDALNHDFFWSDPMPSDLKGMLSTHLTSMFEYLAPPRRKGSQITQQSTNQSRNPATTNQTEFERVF
Sequence of UniProt Q16740 (whole entry, looked up): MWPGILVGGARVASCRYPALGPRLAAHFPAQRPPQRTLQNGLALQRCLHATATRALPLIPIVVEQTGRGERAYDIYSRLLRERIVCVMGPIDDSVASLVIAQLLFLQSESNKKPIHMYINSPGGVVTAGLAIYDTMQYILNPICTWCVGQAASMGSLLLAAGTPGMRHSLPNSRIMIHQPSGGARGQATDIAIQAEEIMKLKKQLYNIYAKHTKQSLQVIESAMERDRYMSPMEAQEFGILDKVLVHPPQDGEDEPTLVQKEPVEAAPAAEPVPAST
Sequence of UniProt Q704Y3 (whole entry, unmodified, looked up): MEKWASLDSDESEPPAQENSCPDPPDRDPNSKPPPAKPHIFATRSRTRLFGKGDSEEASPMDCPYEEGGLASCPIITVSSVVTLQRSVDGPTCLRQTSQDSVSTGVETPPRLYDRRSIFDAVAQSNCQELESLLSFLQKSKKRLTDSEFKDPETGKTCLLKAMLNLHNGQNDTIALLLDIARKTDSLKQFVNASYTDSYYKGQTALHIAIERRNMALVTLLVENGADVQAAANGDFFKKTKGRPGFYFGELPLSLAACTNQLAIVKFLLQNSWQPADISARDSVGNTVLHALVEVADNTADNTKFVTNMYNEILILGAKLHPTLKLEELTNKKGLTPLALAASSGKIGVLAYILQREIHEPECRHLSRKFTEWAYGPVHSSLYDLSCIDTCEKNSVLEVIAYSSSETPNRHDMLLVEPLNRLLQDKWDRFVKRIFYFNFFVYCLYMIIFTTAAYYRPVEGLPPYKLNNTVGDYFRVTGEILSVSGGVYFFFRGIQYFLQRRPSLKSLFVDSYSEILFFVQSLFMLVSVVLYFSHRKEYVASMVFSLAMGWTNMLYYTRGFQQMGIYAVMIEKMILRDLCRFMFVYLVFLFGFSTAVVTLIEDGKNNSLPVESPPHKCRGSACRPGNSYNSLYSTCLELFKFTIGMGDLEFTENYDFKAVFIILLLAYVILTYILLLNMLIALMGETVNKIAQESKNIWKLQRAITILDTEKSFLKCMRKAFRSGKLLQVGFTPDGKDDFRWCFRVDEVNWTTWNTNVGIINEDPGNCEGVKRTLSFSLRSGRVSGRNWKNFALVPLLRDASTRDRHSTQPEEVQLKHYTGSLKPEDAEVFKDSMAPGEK

SMILES	target or system	test	test system	setting	scale	measurement	value
O=C(Nn1c(-c2cccc(Cl)c2)nc2ccccc2c1=O)c1ccccc1	TRPM channel TRPM_PZQ (Schistosoma mansoni, UniProt A0A5K4F0X5)	whole-cell inward current, activator, automated patch clamp	HEK293			EC50	110 ± 20 nM
CC(C)(C(=O)N1CCC(Nc2nc3c(c(=O)[nH]2)CCCC3)CC1)c1ccc(Cl)cc1	MRGPRD (Homo sapiens, UniProt Q8TDS7)	β-arrestin recruitment, agonist				EC50	51.7 nM
CC(=O)N[C@@H]1[C@@H](O[C@@H]2O[C@H](C(=O)O)[C@@H](O[C@@H]3O[C@H](COS(=O)(=O)O)[C@@H](OS(=O)(=O)O)[C@H](O[C@@H]4O[C@H](C(=O)O)[C@@H](O[C@@H]5O[C@H](COS(=O)(=O)O)[C@@H](OS(=O)(=O)O)[C@H](O[C@@H]6O[C@H](C(=O)O)[C@@H](OS(=O)(=O)O)[C@H](OS(=O)(=O)O)[C@H]6OS(=O)(=O)O)[C@H]5NC(C)=O)[C@H](OS(=O)(=O)O)[C@H]4OS(=O)(=O)O)[C@H]3NC(C)=O)[C@H](OS(=O)(=O)O)[C@H]2OS(=O)(=O)O)[C@H](OS(=O)(=O)O)[C@@H](COS(=O)(=O)O)O[C@H]1N=[N+]=[N-]	Metalloproteinase inhibitor 3 (Homo sapiens, UniProt P35625)	probe displacement, FP competition		protein 67 nM, added: TAMRA-labelled sHA tetramer probe		EC50	1650 ± 119 nM
O=C(O)Cc1ccccc1Nc1c(Cl)cccc1Cl	PLCG2 residues 1-1195	enzyme activity, activator	lipid vesicles	15 min preincubation, added: XY-69 substrate 0.5 µM		EC50	51000 nM
Cc1cccc2[n+]1[Rh-3]13([c]4ccccc4-c4ccc5ccc(Cl)cc5[n+]41)([c]1ccccc1-c1ccc4ccc(Cl)cc4[n+]13)[n+]1c(C)cccc1-2.F[P-](F)(F)(F)(F)F	Cyclin-dependent kinase 9, with cyclin T1 (CDK9, Homo sapiens, UniProt P50750)	enzyme activity				EC50	125 ± 8.4 nM
CC[C@H](C)[C@H]1C(=O)N(Cc2cc3ccccc3c3ccccc23)C[C@@H]2N(C(=O)NCCCC(F)(F)F)CCC(=O)N12	CLPP (Homo sapiens, UniProt Q16740)	activator				EC50	> 100000 nM
O=C(NC[C@@H](Cc1ccc(F)cc1)N1CCC(O)(C(F)(F)F)CC1)C1(c2ccc(Cl)cc2)CCCC1	TRPA1 (Homo sapiens, UniProt O75762, M912L)					EC50	24 nM
CCc1cc(O)cc2c(/C=N/NC(=N)NCCc3ccc(Cl)cc3)c[nH]c12	RXFP4 (Homo sapiens, UniProt Q8TDU9, L118A/V122A)	agonist				EC50	3.8 nM
COC1CN([C@H]2CC[C@H]([C@@]3(C)Oc4c(Cl)cc(C(=O)NCc5c(SC)cc(C)[nH]c5=O)c(C)c4O3)CC2)C1		RNA-seq, refers to: PFKFB2	human, whole blood	dose not given, 24 h	relative to: pretreatment baseline	log2 fold change	1.31
CC1=NC(C)C(C)S1 (stereo not drawn)	Olfactory receptor 5K16 (Or5k16, Mus musculus, UniProt Q7TS48)	cAMP, agonist	HEK293 transfected with Or5k16			EC50	361000 ± 41500 nM
OC[C@@H]1[C@@H](O)[C@H](O)[C@@H](O)CN1CCCCCOCc1ccc(-c2cc(C(F)(F)F)cc(C(F)(F)F)c2)cc1	GBA2	inhibitor, 4MU-β-D-glucopyranoside	HEK293T homogenates overexpressing GBA2		relative to: GCS IC50 over GBA2 IC50	selectivity ratio	1
Nc1ncnc2c1ncn2[C@@H]1O[C@H](COP(=O)(O)OP(=O)(O)OC[C@H]2OC(O)[C@H](O)[C@@H]2O)[C@@H](O)[C@H]1OP(=O)(O)O (stereo partly drawn)	TRPM2 (Nematostella vectensis, UniProt A7T1N0, T702A)	agonist				EC50	240 ± 20 nM
CCCC[C@H](NC(=O)[C@H](Cc1ccccc1)NC(=O)[C@H](Cc1c[nH]cn1)NC(=O)CCNC(=O)[C@@H](NC(=O)[C@H](C)NC(=O)[C@H](Cc1c[nH]c2ccccc12)NC(=O)[C@H](CCC(N)=O)NC(=O)[C@H](N)Cc1ccccc1)C(C)C)C(N)=O	GRPR (Homo sapiens, UniProt P30550)	calcium signal, agonist				EC50	15.1 nM
COc1ccc(C(=O)c2c(C(=O)NCCCN(C)C)oc3ccc(Cl)cc3c2=O)cc1OC	GHSR (Homo sapiens, UniProt Q92847, E197A)	Gαq dissociation, TRUPATH BRET	HEK293T			EC50	525 nM
Cc1cc(C)c(S(=O)(=O)Nc2cccc(C(F)(F)F)c2)c(C)c1	PLCG2 residues 1-1195	enzyme activity, activator	lipid vesicles	15 min preincubation, added: XY-69 substrate 0.5 µM		EC50	73000 nM
CC(C)Oc1cc(Cl)ccc1CNc1cc(-c2ccccc2)nc2ncnn12	GPR3 (Homo sapiens, UniProt P46089, L136A)	cAMP level, agonist				EC50	3020 nM and 2570 nM and 1820 nM and 3310 nM
Cc1ccccc1-c1ccc(COCCCCCN2C[C@H](O)[C@@H](O)[C@H](O)[C@H]2CO)cc1	GBA2	inhibitor, 4MU-β-D-glucopyranoside	HEK293T homogenates overexpressing GBA2		relative to: GCS IC50 over GBA2 IC50	selectivity ratio	50
Oc1ccc(C2COc3cc(O)ccc3C2)cc1 (racemic)	ESR1	array formation, agonist	ERα-GFP PRL-HeLa	1 h		EC50	35.3 nM
CC[C@H]([C@H](C)c1ccc(O)cc1)[C@@H](CC)c1ccc(O)cc1	ESR1	reporter gene, luciferase reporter (3xERE)	293T	24 h		EC50	2.15 nM
CCCCCCCC/C=C\CCCCCCCC(=O)NCCO	Trpv1 (Mus musculus, UniProt Q704Y3, S513T)	ion current, agonist, whole-cell patch clamp		24 °C, S513T, +80 mV		EC50	740 ± 140 nM
COc1cc(I)c(Cc2cc(OC)c(OC)cc2CC(=O)OC(C)(C)C)cc1OC	MTNR1A	GTPγS binding, agonist, radiometric		cell membranes		EC50	9330 nM
COc1ccc2c(c1)CC[C@@H]1[C@@H]2CC[C@]2(C)[C@@H](NCCCCCCN3C(=O)C=CC3=O)CC[C@@H]12	PLCG2 residues 1-1195	enzyme activity, activator	lipid vesicles	15 min preincubation, added: XY-69 substrate 0.5 µM		EC50	2400 nM
COc1cc(C2C(NC(=O)c3ccc(NC(=O)OC(C)(C)C)cc3)(C(=O)O)C(c3ccc(OC(=O)c4cccs4)c(OC)c3)C2(NC(=O)c2ccc(NC(=O)OC(C)(C)C)cc2)C(=O)O)ccc1OC(=O)c1cccs1 (stereo not drawn)	GLP1R (Homo sapiens, UniProt P43220, K202A)	cAMP, agonist				EC50	45.7 nM
COc1ccc2[nH]c(-c3cccc4ccccc34)c(CCNC(=O)CI)c2n1	MTNR1A	cAMP, agonist, TR-FRET				EC50	3310 nM

A few entries again:
SMILES	target or system	test	test system	setting	scale	measurement	value
CC1=NC(C)C(C)S1 (stereo not drawn)	Olfactory receptor 5K16 (Or5k16, Mus musculus, UniProt Q7TS48)	cAMP, agonist	HEK293 transfected with Or5k16			EC50	361000 ± 41500 nM
CC(=O)N[C@@H]1[C@@H](O[C@@H]2O[C@H](C(=O)O)[C@@H](O[C@@H]3O[C@H](COS(=O)(=O)O)[C@@H](OS(=O)(=O)O)[C@H](O[C@@H]4O[C@H](C(=O)O)[C@@H](O[C@@H]5O[C@H](COS(=O)(=O)O)[C@@H](OS(=O)(=O)O)[C@H](O[C@@H]6O[C@H](C(=O)O)[C@@H](OS(=O)(=O)O)[C@H](OS(=O)(=O)O)[C@H]6OS(=O)(=O)O)[C@H]5NC(C)=O)[C@H](OS(=O)(=O)O)[C@H]4OS(=O)(=O)O)[C@H]3NC(C)=O)[C@H](OS(=O)(=O)O)[C@H]2OS(=O)(=O)O)[C@H](OS(=O)(=O)O)[C@@H](COS(=O)(=O)O)O[C@H]1N=[N+]=[N-]	Metalloproteinase inhibitor 3 (Homo sapiens, UniProt P35625)	probe displacement, FP competition		protein 67 nM, added: TAMRA-labelled sHA tetramer probe		EC50	1650 ± 119 nM
